Results gathered from unrelated publications.
Protocols differ between the studies behind these lines. “And” joins repeats or separate records; there may be more than shown. ± marks the error that the study gave.

| Structure (SMILES) | assay | system | conditions | how to read | endpoint | result |
| --- | --- | --- | --- | --- | --- | --- |
| CCCCCCCCCCCCCCCC(=O)OCC(CSC[C@H](N)C(=O)N[C@@H](CO)C(=O)N[C@@H](CCCCN)C(=O)N[C@@H](CCCCN)C(=O)N[C@@H](CCCCN)C(=O)N[C@@H](CCCCN)C(=O)NCCCCCC(=O)N[C@@H](CCCCN)C(=O)N[C@@H](CC(C)C)C(=O)N[C@H](C(=O)N[C@@H](Cc1ccccc1)C(=O)N[C@@H](Cc1ccccc1)C(=O)N[C@@H](Cc1ccc2ccccc2c1)C(=O)O)C(C)C)OC(=O)CCCCCCCCCCCCCCC (stereo partly drawn) |  | C57BL/6J mouse, serum | intraperitoneal, dose not given |  | serum creatinine | 43.4 µmol/L and 82.4 µmol/L and 49.1 µmol/L and 82.8 µmol/L |
| CN1Cc2cc(Cl)ccc2-n2c(nnc2C2CCN(c3cccc([18F])n3)CC2)C1 |  | C57BL/6 mouse male, brain | intravenous, 3.7 MBq, 60 min |  | tissue uptake | 0.28 ± 0.05 %ID/g |
| N=C(N)NCCC[C@@H](NC(=O)[C@H](N)Cc1c[nH]c2ccccc12)C(=O)N[C@H](CCCCN)C(=O)N[C@H](Cc1c[nH]c2ccccc12)C(=O)N[C@H](CCCNC(=N)N)C(=O)N[C@H](CCCCN)C(=O)N[C@H](Cc1c[nH]c2ccccc12)C(=O)N[C@H](CCCNC(=N)N)C(=O)N[C@H](CCCCN)C(=O)N[C@H](Cc1c[nH]c2ccccc12)C(=O)N[C@H](CCCNC(=N)N)C(=O)N[C@H](CCCCN)C(N)=O |  | mouse, spleen | intravenous, 30 mg/kg single dose, 7 days |  | organ index | 0.594 |
| CC[C@H](C)[C@H](NC(=O)[C@H](CCCCN)NC(=O)CNC(=O)[C@H](CC(C)C)NC(=O)[C@H](Cc1ccccc1)NC(=O)[C@H](CCCCN)NC(=O)[C@H](CO)NC(=O)[C@H](Cc1ccccc1)NC(=O)[C@H](Cc1c[nH]c2ccccc12)NC(=O)[C@H](CCC(N)=O)NC(=O)[C@@H](NC(=O)[C@H](Cc1ccccc1)NC(=O)CCCCCNC(=O)CN1CCN(CC(=O)O)CCN(CC(=O)O)CCN(CC(=O)O)CC1)C(C)C)C(=O)N[C@@H](CCC(=O)O)C(=O)N1CCC[C@H]1C(=O)N[C@@H](CC(=O)O)C(=O)N[C@H](C(=O)N[C@@H](CO)C(=O)N[C@@H](CCC(N)=O)C(=O)N[C@H](C(=O)N[C@@H](CCC(N)=O)C(=O)N[C@@H](CC(=O)O)C(=O)N1CCC[C@H]1C(=O)N[C@@H](CC(N)=O)C(=O)N[C@@H](CC(=O)O)C(=O)N[C@@H](CCC(N)=O)C(=O)N[C@@H](Cc1ccc(O)cc1)C(=O)N[C@@H](CCC(=O)O)C(=O)N1CCC[C@H]1C(=O)N[C@@H](Cc1ccccc1)C(=O)O)C(C)C)C(C)C [copper-64 labelled] |  | GZMB-/- mouse bearing CT26 tumour, lung | dose not given, 2 h, checkpoint inhibitor-treated |  | tissue uptake | 2.86 ± 0.4 %ID/g |
| NC1CCN(C(=O)Oc2ccc(C3CCCC4(C3)OOC3(O4)C4CC5CC(C4)CC3C5)cc2)CC1 (racemic) |  | male ICR mice, plasma | intravenous, 10 mg/kg |  | Tmax | 4.98 min |
| CSCC[C@H](NC(=O)CNC(=O)[C@H](CCCCN)NC(=O)[C@H](CC(C)C)NC(=O)[C@@H]1CCCN1C(=O)[C@H](CO)NC(=O)[C@H](Cc1c[nH]cn1)NC(=O)[C@H](Cc1c[nH]c2ccccc12)NC(=O)[C@H](CCCNC(=N)N)NC(=O)[C@H](CC(C)C)NC(=O)[C@H](CCCNC(=N)N)NC(=O)[C@H](Cc1c[nH]c2ccccc12)NC(=O)[C@H](CS)NC(=O)CCCCCNC(=O)CN1CCN(CC(=O)O)CCN(CC(=O)O)CCN(CC(=O)O)CC1)C(=O)O [copper-64 labelled] | PET | C57BL/6J mice, B16-F10 tumour, tumor | intravenous, 3.5 h |  | tissue uptake | 1.95 ± 0.17 %ID/g |
| C[C@@H](Nc1c(-c2c(F)cc(C#N)cc2F)c(Cl)nc2ncnn12)C(C)(C)C |  | CD-1 mice, both sexes | intraperitoneal, 3 weeks, twice weekly |  | maximum tolerated dose | ≥ 20 mg/kg |
| CN1CCCCC1C(=O)NC(Cc1ccc(-c2ccccc2)cc1)B(O)O (stereo not drawn) |  | rat, plasma | intravenous, 1 mg/kg |  | clearance | 23.3 mL/min/kg |
| CC[C@H](C)[C@H](NC(=O)[C@H](CCC(N)=O)NC(=O)[C@H](Cc1c[nH]cn1)NC(=O)[C@H](C)NC(=O)[C@H](CC(C)C)NC(=O)[C@H](CCCCN)NC(=O)[C@H](CCC(N)=O)NC(=O)[C@@H](NC(=O)[C@@H](NC(=O)[C@@H]1CSSC[C@H](NC(=O)CNC(=O)[C@H](Cc2ccccc2)NC(=O)[C@H](CO)NC(=O)[C@H](CCCNC(=N)N)NC(=O)[C@H](CC(C)C)NC(=O)CNC(=O)[C@H](CCC(N)=O)NC(=O)[C@H](Cc2ccccc2)NC(=O)[C@H](CC(N)=O)NC(=O)[C@H](CC(N)=O)NC(=O)[C@H](CCSC)NC(=O)[C@H](CO)NC(=O)[C@H](CCC(N)=O)NC(=O)[C@H](CCCNC(=N)N)NC(=O)[C@@H](N)Cc2ccc(O)cc2)C(=O)N[C@@H](CCCNC(=N)N)C(=O)N[C@@H](Cc2ccccc2)C(=O)NCC(=O)N[C@@H]([C@@H](C)O)C(=O)N1)[C@@H](C)O)C(C)C)C(=O)N[C@@H](Cc1ccc(O)cc1)C(=O)N[C@@H](CCC(N)=O)C(=O)N[C@@H](Cc1ccccc1)C(=O)N[C@H](C(=O)N[C@@H](CC(=O)O)C(=O)N[C@@H](CCCCN)C(=O)N[C@@H](CC(=O)O)C(=O)N[C@@H](CCCCN)C(=O)N[C@@H](CC(=O)O)C(=O)N[C@@H](CC(N)=O)C(=O)N[C@H](C(=O)N[C@@H](C)C(=O)N1CCC[C@H]1C(=O)N[C@@H](CCCNC(=N)N)C(=O)N[C@@H](CO)C(=O)N[C@@H](CCCCN)C(=O)N[C@H](C(=O)N[C@@H](CO)C(=O)N1CCC[C@H]1C(=O)N[C@@H](CCC(N)=O)C(=O)NCC(=O)N[C@@H](Cc1ccc(O)cc1)C(=O)NCC(=O)O)[C@@H](C)CC)C(C)C)[C@@H](C)O |  | human EDTA plasma | time not given, after 5 freeze-thaw cycles | relative to: untreated samples | recovery | 91.4% |
| C#Cc1c(F)ccc2cc(O)cc(-c3ncc4c(N5CC6CCC(C5)N6C(=O)OCOC(=O)CCC)nc(OC[C@@]56CCCN5C[C@H](F)C6)nc4c3F)c12 | chemical stability | simulated intestinal fluid | 1 µM, 30 min |  | compound remaining | 65.4% |
| O=C1NC2(CC2)COc2ncc(F)cc2[C@H]2COCCN2c2ccn3ncc1c3n2 |  | Sprague-Dawley rat, female, heart | oral, 5 mg/kg/day, 4 weeks, end of treatment |  | organ-to-body weight ratio | 0.364 ± 0.02% |
| CC(=O)NCCCC[C@@H]1NC(=O)[C@H](Cc2c[nH]c3c(C)cccc23)NC(=O)[C@H]([C@@H](C)O)NC(=O)[C@H](CC(N)=O)NC(=O)[C@@H](NC(C)=O)C(C)(C)SSC(C)(C)[C@@H](C(=O)N[C@@H](Cc2ccc(OCCN)cc2)C(=O)N[C@@H](Cc2ccc3ccccc3c2)C(=O)NC2(C(=O)N[C@@H](CCC(=O)O)C(=O)N[C@@H](CC(N)=O)C(=O)N[C@@H](Cc3cccnc3)C(=O)N(C)CC(N)=O)CCOCC2)NC1=O |  | cynomolgus monkey, blood | 0.13 µM, 2 h |  | whole blood to plasma concentration ratio | 0.7 ± 0.04 |

Excerpt of the above:
| Structure (SMILES) | assay | system | conditions | how to read | endpoint | result |
| --- | --- | --- | --- | --- | --- | --- |
| CC[C@H](C)[C@H](NC(=O)[C@H](CCCCN)NC(=O)CNC(=O)[C@H](CC(C)C)NC(=O)[C@H](Cc1ccccc1)NC(=O)[C@H](CCCCN)NC(=O)[C@H](CO)NC(=O)[C@H](Cc1ccccc1)NC(=O)[C@H](Cc1c[nH]c2ccccc12)NC(=O)[C@H](CCC(N)=O)NC(=O)[C@@H](NC(=O)[C@H](Cc1ccccc1)NC(=O)CCCCCNC(=O)CN1CCN(CC(=O)O)CCN(CC(=O)O)CCN(CC(=O)O)CC1)C(C)C)C(=O)N[C@@H](CCC(=O)O)C(=O)N1CCC[C@H]1C(=O)N[C@@H](CC(=O)O)C(=O)N[C@H](C(=O)N[C@@H](CO)C(=O)N[C@@H](CCC(N)=O)C(=O)N[C@H](C(=O)N[C@@H](CCC(N)=O)C(=O)N[C@@H](CC(=O)O)C(=O)N1CCC[C@H]1C(=O)N[C@@H](CC(N)=O)C(=O)N[C@@H](CC(=O)O)C(=O)N[C@@H](CCC(N)=O)C(=O)N[C@@H](Cc1ccc(O)cc1)C(=O)N[C@@H](CCC(=O)O)C(=O)N1CCC[C@H]1C(=O)N[C@@H](Cc1ccccc1)C(=O)O)C(C)C)C(C)C [copper-64 labelled] |  | GZMB-/- mouse bearing CT26 tumour, lung | dose not given, 2 h, checkpoint inhibitor-treated |  | tissue uptake | 2.86 ± 0.4 %ID/g |
